Results from different studies.
Each numbered part is a random draw from the data of one study; scales do not carry over between parts. Substitutions count along the parent as printed.

Study 1
Target: Histone acetyltransferase KAT6A, winged helix 2, GST fusion (KAT6A, Homo sapiens, UniProt Q92794, residues 85-181)
Technique: protein binding microarray
Molecule type: double-stranded DNA, one strand shown
Matrix: in vitro
Tested at: not given
Notes: 8-mer, flanks averaged, mean of 2 arrays, mostly near background
Reference: not given
Reading: higher = stronger binding
Residues (chain): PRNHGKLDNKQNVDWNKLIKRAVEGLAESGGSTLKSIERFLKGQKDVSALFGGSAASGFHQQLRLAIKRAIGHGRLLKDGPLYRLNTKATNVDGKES
Oligonucleotide	E-score
CATGGCGA	0.0703
CTCCCAGC	0.0333
ATGACGCA	-0.023
ATACGTTC	-0.127
ATAGGGCC	-0.0149
GTCGCGGA	0.0709
AAGAGCAC	0.0691
AAAGAGAC	0.0896
GACGTTGC	0.124
ACGTGACT	-0.242
ACCACCAA	-0.119
CCCGCGCA	0.221
GGACAAAC	0.0558
ATGATGCG	0.0766
ATTTACGA	-0.0438
GGAGTCTA	-0.231
ATCGCGAT	0.0792
CAGCTTGA	-0.0699
ACTCCTTG	-0.139
GATTGCAA	0.00106
CAGACTGC	-0.17
GATCTGGA	0.0873
AGTGAAAC	0.0156
TAGTGCGA	0.052
TAGCAGCA	0.122

Study 2
Target: TAR DNA-binding protein 43, full length, His tag (TARDBP, Homo sapiens, UniProt Q13148, residues 1-414)
Technique: RNA Bind-n-Seq
Molecule type: RNA
Matrix: in vitro
Tested at: 20 nM
Notes: 6-mer, flanks averaged, single round
Together with: 150 mM LiCl
Reference: input library
Reading: higher = stronger binding
Oligonucleotide	6-mer enrichment (R)
UAAUAU	1.04
GUAGUU	1.08
AAAACC	0.836
AUCACA	0.834
ACAUGG	0.928
GUACCG	0.892
CGUGAC	0.902
CCGCAA	0.879
GUGAUG	1.27

Study 3
Target: Prothrombin, mature alpha-thrombin (F2, Homo sapiens, UniProt P00734)
Technique: aptamer microarray, sandwich
Molecule type: DNA with 2'F-ANA
Matrix: in vitro
Tested at: 200 nM
Notes: whole 15-mer aptamer, many near background
Together with: Cy3 exosite-II aptamer, 400 nM
Reading: higher = stronger binding
Oligonucleotide: GGTTGGTGTGGTTGG
Modification	mean fluorescence intensity
2'F-ANA at 1 6 7 8 10 12	71.3 a.u.
2'F-ANA at 1 3 5 6 9 10 11 12	50.2 a.u.
2'F-ANA at 1 2 3 4 7 8 13	154 a.u.
2'F-ANA at 5 6 7 8 9 10 13	52.8 a.u.
2'F-ANA at 1 3 6 7 8 10 12	127 a.u.
2'F-ANA at 3 4 8 9 11 12 14 15	285 a.u.
2'F-ANA at 5 7 10 11 12 14 15	52.4 a.u.
2'F-ANA at 2 5 7 9 11 12 13	90.7 a.u.
2'F-ANA at 4 5 7 8 9 12 13 14	72.9 a.u.
2'F-ANA at 2 5 6 7 8 9 10 12 13 14	85.1 a.u.
2'F-ANA at 4 8 9 10 11 13 14	54.4 a.u.
2'F-ANA at 1 2 4 9 10 12 13 14	50.9 a.u.
2'F-ANA at 1 2 3 4 8 10 11 12 14	46.6 a.u.
2'F-ANA at 1 2 4 5 6 7 8 10 11 13 14	99.1 a.u.

Study 4
Target: Homeobox protein Hox-C11, full length (HOXC11, Homo sapiens, UniProt O43248, residues 1-304)
UniProt O43248, sequence (whole entry, looked up): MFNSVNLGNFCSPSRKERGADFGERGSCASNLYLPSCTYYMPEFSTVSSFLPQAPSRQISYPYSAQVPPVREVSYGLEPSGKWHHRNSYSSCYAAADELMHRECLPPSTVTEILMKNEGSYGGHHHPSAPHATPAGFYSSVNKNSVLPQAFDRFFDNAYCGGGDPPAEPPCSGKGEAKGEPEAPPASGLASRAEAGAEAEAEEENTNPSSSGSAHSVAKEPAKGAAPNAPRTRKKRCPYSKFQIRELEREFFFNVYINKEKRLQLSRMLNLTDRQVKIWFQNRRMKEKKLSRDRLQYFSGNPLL
Technique: protein-binding microarray
Molecule type: hairpin DNA
Matrix: in vitro
Tested at: not given
Notes: whole hairpin DNA, median over replicate spots
Reference: not given
Reading: higher = stronger binding
Shared flanks, not repeated: GAGGCCAG … CTGGCCTCACACTC
Oligonucleotide	median fluorescence [a.u.]
GTCCGTAAAGCCTCCTGGCTTTACGGAC (5mC at 32)	9880
GTCGGAAAAGCCTCCTGGCTTTTCCGAC	10700
GCCGTAAAAGCCTCCTGGCTTTTACGGC	9830
GTCGTAAACGCCTCCTGGCGTTTACGAC (5mC at 17)	10900
CGCGTAAAAGCCTCCTGGCTTTTACGCG (5mC at 35)	10600
GTCGTTACGGCCTCCTGGCCGTAACGAC (5mC at 16 28)	10700
GTCGTACGAGCCTCCTGGCTCGTACGAC	10300
GTCGTTCGAGCCTCCTGGCTCGAACGAC (5mC at 15)	10600
CGCGTAAAAGCCTCCTGGCTTTTACGCG (5mC at 9 35)	10100
GTTGTTAAAGCCTCCTGGCTTTAACAAC	8360
GCGGTAAAAGCCTCCTGGCTTTTACCGC	10600
CGCGTTAAAGCCTCCTGGCTTTAACGCG (5mC at 9 35)	9710
GTGGTAAAAGCCTCCTGGCTTTTACCAC	9850
GCGGTTAAAGCCTCCTGGCTTTAACCGC (5mC at 10 34)	9060

Study 5
Target: RING finger protein unkempt homolog, zinc fingers 1-6, GST-SBP tag (UNK, Homo sapiens, UniProt Q9C0B0, residues 30-357)
UniProt Q9C0B0, sequence (30-357, looked up): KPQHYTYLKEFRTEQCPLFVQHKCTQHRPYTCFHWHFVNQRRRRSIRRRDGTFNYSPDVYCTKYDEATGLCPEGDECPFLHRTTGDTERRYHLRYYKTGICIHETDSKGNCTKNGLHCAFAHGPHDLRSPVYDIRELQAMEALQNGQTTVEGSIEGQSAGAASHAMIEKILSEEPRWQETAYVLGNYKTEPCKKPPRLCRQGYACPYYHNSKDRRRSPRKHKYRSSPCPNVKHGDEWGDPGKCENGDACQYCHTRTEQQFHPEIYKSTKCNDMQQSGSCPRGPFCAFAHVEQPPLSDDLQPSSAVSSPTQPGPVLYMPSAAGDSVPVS
Technique: RNA Bind-n-Seq
Molecule type: RNA
Matrix: in vitro
Tested at: not given
Notes: RNA with constant flanks, human-mouse chimeric sites, ends assumed
Reference: input RNA pool
Reading: higher = stronger binding
Shared flanks, not repeated: GGGAGUUCUACAGUCCGACGAUC … CAACAGAGGAUUGAGCAUCA
Oligonucleotide	bound/input enrichment
GAGCCAAGCCGGCAGUUUGUAAAGGACUCCAUUCGGCUGGUUAAAAGAUGCACCAAACCCGACAGAAAAGAAUUCCAGAAGAUUGCCAUGGCUACAGCUAUAGGAUUUGCUAUCAUGGGA	0.162 ratio
UCUUUAAAUGCACUACAACCUUUUCUGACAGUGCUUUCCCUCCCAUAGAUCCACGUUCAAGCUCAAAGAGCAAAGGCUUUGCACGGAUCUGAUGAUGCUGAUGAAGAAAGAUUUCUGAGA	0.236 ratio
AAAGAGAAACUAAAGCAACUAAUAGAGAAGAGGAUUGGCAAAGAGAAUUUCAUAGAGAAACUAGGAUUUUAUUAGCAACAUGAGUUAUAUUCCAGAGGCAUCUCAGAACCCCAGCCAAAC	17.8 ratio
GCCACCAGAUCCCAGAAACAUGACCCUUGCUGCCUACAAAGAGAAGAUGAAGGAGCUCCCGCUGGUGUCUCUGUUCUGCUCUUGCUUCCUGGCCGAUCCCCUGAAUAAGUCGUCCUACAA	0.174 ratio
GAUAAGAAAAGCUUGUUGGAGACCCGCUUGCAUGUCACUGGUAGAGAACUGAGGUCCCAAAUAGCUGAAACUUUCGGAUUUCAAGAAAAUUACAUCAAGAUCGUAAUAAAUAAGAAACAG	0.388 ratio
AAAUCAUGUGUGUCCAAUAUUGAAAGUACUUUAUCUGCACUCCAGUAUGUAAGCAGUAUAGUAGUUUCUUUAGAGAAUAGGUCAGCCAUUGUAAAGUACAAUGCAAGCUUAGUCACUCCA	3.02 ratio
CUGGCCUGGCCCUCCCCAGGGGCCUCCUUCUCUGCAUUCACUGCUUCUGCUACGGAUACUUUCAGCUGCAACUCCCUACUGGGUGGGGCACCCAUUUCAGGCAGAAGGUUUUGGUACCCU	0.21 ratio
ACCUCCCCCUCCCGCCUCACCCCACCCCCGCUUUUUGGAAAGUUUUUGGCUUUUUUUUUCCUUCCCCAGUUAGAAUUAUUACAGUUUCCCCCGCAAGGGUCUAUCGAAGGGCUUGACGGA	11.1 ratio

Study 6
Target: CCND1, cyclin fold, Cln2 fusion (human)
Technique: yeast growth competition, sequencing
Matrix: yeast
Notes: weak parent motif
Reference: not given
Reading: higher = stronger binding
Parent: CDKN1B docking peptide (human); PSACRNLFGPVDH; partner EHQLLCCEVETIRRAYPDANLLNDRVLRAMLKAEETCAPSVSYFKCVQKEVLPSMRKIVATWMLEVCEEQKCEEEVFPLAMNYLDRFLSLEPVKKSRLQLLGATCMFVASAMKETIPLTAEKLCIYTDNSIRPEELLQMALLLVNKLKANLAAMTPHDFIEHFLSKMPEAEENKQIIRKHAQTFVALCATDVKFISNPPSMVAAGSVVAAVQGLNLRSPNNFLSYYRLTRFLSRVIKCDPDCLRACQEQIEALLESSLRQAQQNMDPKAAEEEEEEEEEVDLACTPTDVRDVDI
Substitution	normalised enrichment score
F8M	0.105
F8K	0.574
N6Y	0.00801
F8I	0.464
D12Y	0.459
P1Y	0.982
D12I	0.577
S2R	0.635
D12C	0.703
P1L	0.0428
V11F	0.908
V11S	1.27
L7P	-0.0163
S2T	0.566
A3S	0.426
N6F	-0.0677
R5L	0.521
L7Q	-0.202
D12R	0.319

Study 7
Target: PABPC1L2, full length, GST fusion (mouse, UniProt A0ABA7IW68)
Technique: RNAcompete
Molecule type: RNA
Matrix: in vitro
Tested at: 20 nM
Notes: 7-mer, probes averaged, single round
Reference: mean of 7-mers
Reading: higher = stronger binding
Construct (chain): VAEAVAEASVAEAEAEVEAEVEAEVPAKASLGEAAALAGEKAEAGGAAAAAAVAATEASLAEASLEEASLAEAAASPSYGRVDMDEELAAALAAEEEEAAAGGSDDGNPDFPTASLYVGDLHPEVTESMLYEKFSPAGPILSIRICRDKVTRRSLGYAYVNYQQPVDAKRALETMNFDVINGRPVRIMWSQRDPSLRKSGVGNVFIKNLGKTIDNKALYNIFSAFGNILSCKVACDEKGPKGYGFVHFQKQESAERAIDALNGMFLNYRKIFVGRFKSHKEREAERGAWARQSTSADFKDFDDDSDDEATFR
Oligonucleotide	7-mer Z-score
GGCUGUU	-0.104
CAUUCGA	-0.215
AAAAGGC	3.27
CCCGGGA	-0.199
UACGCAC	-0.104
UAGAGCG	-0.0826
GCUAACU	-0.251
CAAAACC	0.729
AUUUAUU	-0.0101
UGAUUUC	-0.38
GGGUAGA	0.457
AAGAGAU	0.602
GCUUGUG	-0.284
CGCCUGU	-0.44
CAGCACC	-0.0482
UUUGUGU	-0.556
CCUGGAC	-0.215
CUUAACA	-0.155
GUUUUGA	-0.309
GCUAGGU	0.0533
CCGAUGC	-0.175
GGGAAGA	0.26
CUUGGAG	-0.141
GUUCUAC	-0.309
UCCAACC	-0.219

Study 8
Target: ABI1, truncated, D143A, DHFR fusion (Arabidopsis thaliana)
Technique: DHFR PCA, deep sequencing
Matrix: yeast
Notes: methotrexate growth selection, single substitutions
Together with: (+)-ABA 17 µM
Reference: wild-type fitted maximum
Reading: higher = stronger binding
Parent: PYL1, truncated, DHFR fusion (Arabidopsis thaliana); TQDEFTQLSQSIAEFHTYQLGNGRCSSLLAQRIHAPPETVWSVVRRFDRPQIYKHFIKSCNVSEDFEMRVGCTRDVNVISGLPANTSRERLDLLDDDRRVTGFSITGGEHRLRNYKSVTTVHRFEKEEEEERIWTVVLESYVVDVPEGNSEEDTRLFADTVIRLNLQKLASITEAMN
Substitution	relative binding score [%]
E147Y	76
R46A	81.1
K116C	46.8
Q10D	91.6
G21T	80.1
V70H	33.5
I33F	-5.87
D65Y	59.3
H16I	-6.2
K168M	64.2
A170I	-10.1
G21F	60.1
D75H	84.3
S87T	32.2
R32Q	76
